Experimental data from different studies.
Each line is one published result; not all experiments were run side by side. Values joined by “and” are separate records of one study, mostly repeats; a detail may differ.
Target: Tyrosine-protein kinase Mer (MERTK, Homo sapiens, UniProt Q12866)
One construct used (Q12866 21-999): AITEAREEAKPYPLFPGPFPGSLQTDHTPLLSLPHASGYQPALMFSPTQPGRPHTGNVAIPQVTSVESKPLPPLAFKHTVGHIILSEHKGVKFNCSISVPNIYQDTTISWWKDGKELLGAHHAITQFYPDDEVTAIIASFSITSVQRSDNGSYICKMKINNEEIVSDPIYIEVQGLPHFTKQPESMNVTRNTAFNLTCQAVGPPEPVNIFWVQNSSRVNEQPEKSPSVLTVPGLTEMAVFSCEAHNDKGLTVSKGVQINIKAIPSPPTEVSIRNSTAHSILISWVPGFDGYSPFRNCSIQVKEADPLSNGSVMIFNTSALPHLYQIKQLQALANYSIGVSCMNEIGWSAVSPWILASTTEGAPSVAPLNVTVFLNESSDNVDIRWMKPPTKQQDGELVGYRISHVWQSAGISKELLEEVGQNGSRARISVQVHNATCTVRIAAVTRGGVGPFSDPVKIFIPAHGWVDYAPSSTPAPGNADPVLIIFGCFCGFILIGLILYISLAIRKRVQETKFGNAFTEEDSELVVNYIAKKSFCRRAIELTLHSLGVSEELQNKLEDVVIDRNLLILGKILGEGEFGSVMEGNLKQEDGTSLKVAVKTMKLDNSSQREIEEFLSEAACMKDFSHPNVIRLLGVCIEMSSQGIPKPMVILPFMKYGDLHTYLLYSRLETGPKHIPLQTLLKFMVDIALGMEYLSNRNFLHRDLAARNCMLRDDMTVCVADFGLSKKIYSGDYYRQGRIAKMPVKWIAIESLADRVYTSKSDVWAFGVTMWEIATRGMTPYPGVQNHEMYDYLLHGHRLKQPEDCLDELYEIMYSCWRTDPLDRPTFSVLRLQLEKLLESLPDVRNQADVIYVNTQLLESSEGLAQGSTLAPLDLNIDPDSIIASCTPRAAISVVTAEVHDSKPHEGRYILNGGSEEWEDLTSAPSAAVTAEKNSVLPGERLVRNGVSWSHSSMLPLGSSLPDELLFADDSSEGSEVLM

| assay | test system | conditions | how to read | endpoint | result | Compound |
| --- | --- | --- | --- | --- | --- | --- |
| inhibitor, KiNativ profiling | biochemical | 2 µM | – | inhibition | -19.5% | C=CC(=O)Nc1cc(-c2nn(C3CCN(CCNC(=O)[C@H](C)CCC45CC6CC(CC(C6)C4)C5)CC3)c3ncnc(N)c23)ccc1Oc1ccccc1 |
| enzyme activity | – | 1 µM | baseline: DMSO control | remaining activity | 7.53% | Nc1ncc(-c2cc(-c3cnn(CC(F)(F)F)c3)ncc2F)nc1C(=O)NC1CNCC(F)C1 (stereo not drawn) |
| kinase activity | – | 0.1 µM | – | inhibition | 15% and 12% | C=CC(=O)Nc1cccc(-c2cnc3[nH]cc(C(=O)NC(C)(C)C)c3n2)c1 |
| binding, competition with immobilised ligand | – | 1 µM | – | remaining binding | 50% | Cc1cc(NC(=O)[C@H](O)c2cc(F)cc(F)c2)ccc1-c1cnc(N)c(C(=O)NC(C)C)c1 |
| enzyme activity, inhibitor | – | 10 µM | – | inhibition | 3% | Cc1cccc(O[C@H]2CCC[C@@H](C(C)CNCc3ccncc3)C2)c1 (relative stereo) |
| enzyme activity, inhibitor | – | 10 µM | – | inhibition | 42% | NC(=O)[C@@H](O)C[C@H]1CCc2sc3ncnc(O[C@H]4CC[C@H](N5CCOCC5)CC4)c3c21 |
| binding, competition with immobilised ligand | – | 1 µM | – | remaining binding | 36% | CCN1CCN(Cc2ccc(NC(=O)c3ccc(C)c(NC(=O)c4cncc(-c5cccs5)c4)c3)cc2C(F)(F)F)CC1 |
| kinase activity, inhibitor, ProQinase kinase profiling | – | 25 µM | baseline: control | remaining activity | 108% and 135% | COCC12C(=O)NC3C4(C(OC)CC1O)C1CC5(O)C(OC)C(O)C(OC(C)=O)(C1C5OC(=O)c1ccccc1)C3(O)C(OC)C24 (stereo not drawn) |
| binding, competition with immobilised ligand | – | 1 µM | – | remaining binding | 92% | CNC(=O)C1CCN(c2cc(C)c(F)cc2NC(=O)c2ccc(-c3cc(O)ccc3C)c(C)c2)CC1 |
| cell-free assay, competition with immobilised ligand | – | 1 µM | – | remaining binding | 76% | C=CC(=O)N1CCCC(n2c(=O)c3ncccc3n(Cc3ccc(Oc4ccccc4)cc3)c2=O)C1 (stereo not drawn) |
| cell-free assay, competition with immobilised ligand | – | 1 µM | – | remaining binding | 100% | Cc1ccc(-c2c(/C=C(\C#N)C(=O)NC(C)C)n(CCCO)c3ncnc(N)c23)cc1 |
| enzyme activity, inhibitor, FRET | – | 1 µM | – | inhibition | 1% | C[C@H]1CN(C(=O)c2cn(-c3ccnc(N)n3)c3cc(C#CC4(O)CCCCC4)ccc23)CCN1 |
| cell-free assay, competition with immobilised ligand | – | 10 µM | – | remaining binding | 77% | CC(C)=CC1OC(C)(C)C2C=C3C(=O)C(Cl)=CC(O)C3C3C(O)C4OC4C(=O)C132 (stereo not drawn) |
| KinomeScan | – | 0.1 µM | baseline: untreated | remaining binding | 100% | CNC1C[S+]2CC[S+]3CC[S+](C1)[Ru-4]321([N]=C=S)[n]2c3ccc(OC)cc3c3c4c(c5cc(F)c[n+]1c5c32)C(=O)NC4=O (stereo not drawn) |
| binding, competition with immobilised ligand | – | 1 µM | – | remaining binding | 100% | COc1cc(Nc2nccc(-c3cnn4nc(OC)ccc34)n2)cc(C(F)(F)F)c1 |
| kinase activity, inhibitor | – | 1 µM | baseline: untreated control | remaining activity | 101% | COc1c(OCCCN2CCOCC2)ccc2c1N=C(NC(=O)c1cnc(N)nc1)N1CCN=C21 |
| enzyme activity, inhibitor | – | 10 µM | – | activity vs control | 106% | O=C(Cc1ccc(OCc2ccccc2)cc1)NC1(C(=O)O)CCN(C(=O)c2ccc(-c3cccc(Cl)c3)cc2)CC1 |
| enzyme activity, inhibitor | – | 1 µM | – | activity vs control | 116% | CNC(=O)C[C@H](Cc1ccc(C#N)cc1)NC(=O)c1cc(-c2ccc(CN[C@H](C)c3ccc(C)cc3)o2)ccc1Cl |
